# Measurements collected from several papers.
# Parts stem from different laboratories: compare values within a part only. Changes are numbered by the printed parent chain.
# Chain of UniProt Q96PY6 (whole entry, looked up): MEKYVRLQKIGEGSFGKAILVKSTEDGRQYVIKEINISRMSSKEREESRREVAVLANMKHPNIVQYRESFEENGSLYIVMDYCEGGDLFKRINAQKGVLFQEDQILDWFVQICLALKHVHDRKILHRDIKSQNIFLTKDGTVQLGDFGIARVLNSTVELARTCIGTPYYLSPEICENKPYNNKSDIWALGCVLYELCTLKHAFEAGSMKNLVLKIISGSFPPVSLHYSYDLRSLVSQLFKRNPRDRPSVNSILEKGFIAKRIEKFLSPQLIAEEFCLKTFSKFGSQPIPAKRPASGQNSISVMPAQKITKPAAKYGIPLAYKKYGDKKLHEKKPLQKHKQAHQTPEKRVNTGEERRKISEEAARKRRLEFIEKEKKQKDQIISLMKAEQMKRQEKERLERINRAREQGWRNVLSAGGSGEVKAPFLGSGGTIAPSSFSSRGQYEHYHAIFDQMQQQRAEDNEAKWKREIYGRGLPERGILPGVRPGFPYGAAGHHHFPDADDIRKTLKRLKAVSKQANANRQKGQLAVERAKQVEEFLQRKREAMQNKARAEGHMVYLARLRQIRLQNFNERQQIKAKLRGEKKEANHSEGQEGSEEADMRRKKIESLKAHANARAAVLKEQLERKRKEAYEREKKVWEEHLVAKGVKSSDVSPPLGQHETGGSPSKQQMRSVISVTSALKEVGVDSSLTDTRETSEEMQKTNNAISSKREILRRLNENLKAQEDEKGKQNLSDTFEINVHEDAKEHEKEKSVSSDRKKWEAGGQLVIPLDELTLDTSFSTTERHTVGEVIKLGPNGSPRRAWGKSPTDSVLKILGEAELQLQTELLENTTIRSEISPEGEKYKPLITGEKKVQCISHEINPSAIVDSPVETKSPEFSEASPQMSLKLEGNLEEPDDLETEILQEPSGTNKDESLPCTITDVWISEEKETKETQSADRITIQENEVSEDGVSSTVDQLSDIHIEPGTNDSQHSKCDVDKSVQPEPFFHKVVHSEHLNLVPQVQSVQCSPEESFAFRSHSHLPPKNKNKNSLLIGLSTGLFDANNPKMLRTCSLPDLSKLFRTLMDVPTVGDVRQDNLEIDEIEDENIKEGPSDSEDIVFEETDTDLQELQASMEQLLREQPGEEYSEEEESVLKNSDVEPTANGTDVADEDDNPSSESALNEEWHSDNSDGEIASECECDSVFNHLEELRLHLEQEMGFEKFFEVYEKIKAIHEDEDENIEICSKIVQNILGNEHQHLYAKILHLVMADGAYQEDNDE
# Chain of UniProt P47898 (whole entry, looked up): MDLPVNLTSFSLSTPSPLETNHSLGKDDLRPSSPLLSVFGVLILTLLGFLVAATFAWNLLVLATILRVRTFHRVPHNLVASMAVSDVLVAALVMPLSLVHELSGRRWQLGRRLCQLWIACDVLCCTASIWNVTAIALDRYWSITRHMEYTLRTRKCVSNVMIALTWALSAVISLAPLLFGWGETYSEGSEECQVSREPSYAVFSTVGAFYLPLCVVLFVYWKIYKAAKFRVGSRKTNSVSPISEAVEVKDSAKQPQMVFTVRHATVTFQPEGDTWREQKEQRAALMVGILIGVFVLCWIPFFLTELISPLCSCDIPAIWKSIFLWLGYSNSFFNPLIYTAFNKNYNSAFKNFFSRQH
# Chain of UniProt P30291 (whole entry, looked up): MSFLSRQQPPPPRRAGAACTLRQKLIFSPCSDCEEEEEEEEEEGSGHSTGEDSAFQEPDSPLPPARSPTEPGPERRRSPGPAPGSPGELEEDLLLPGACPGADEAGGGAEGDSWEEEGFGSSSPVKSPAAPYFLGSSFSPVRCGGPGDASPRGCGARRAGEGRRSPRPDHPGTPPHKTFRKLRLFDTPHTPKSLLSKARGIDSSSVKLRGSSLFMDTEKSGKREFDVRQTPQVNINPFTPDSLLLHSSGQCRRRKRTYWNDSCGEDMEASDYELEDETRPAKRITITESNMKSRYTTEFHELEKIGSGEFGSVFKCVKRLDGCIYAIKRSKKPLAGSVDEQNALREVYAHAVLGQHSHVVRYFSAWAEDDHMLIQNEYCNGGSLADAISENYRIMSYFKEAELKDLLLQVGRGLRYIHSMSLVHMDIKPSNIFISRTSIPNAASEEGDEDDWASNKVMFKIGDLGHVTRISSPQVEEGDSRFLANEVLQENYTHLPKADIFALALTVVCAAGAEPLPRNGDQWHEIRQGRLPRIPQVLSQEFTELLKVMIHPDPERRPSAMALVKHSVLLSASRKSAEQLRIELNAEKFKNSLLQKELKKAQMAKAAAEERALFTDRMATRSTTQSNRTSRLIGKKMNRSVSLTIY
# Chain of UniProt P46098 (whole entry, looked up): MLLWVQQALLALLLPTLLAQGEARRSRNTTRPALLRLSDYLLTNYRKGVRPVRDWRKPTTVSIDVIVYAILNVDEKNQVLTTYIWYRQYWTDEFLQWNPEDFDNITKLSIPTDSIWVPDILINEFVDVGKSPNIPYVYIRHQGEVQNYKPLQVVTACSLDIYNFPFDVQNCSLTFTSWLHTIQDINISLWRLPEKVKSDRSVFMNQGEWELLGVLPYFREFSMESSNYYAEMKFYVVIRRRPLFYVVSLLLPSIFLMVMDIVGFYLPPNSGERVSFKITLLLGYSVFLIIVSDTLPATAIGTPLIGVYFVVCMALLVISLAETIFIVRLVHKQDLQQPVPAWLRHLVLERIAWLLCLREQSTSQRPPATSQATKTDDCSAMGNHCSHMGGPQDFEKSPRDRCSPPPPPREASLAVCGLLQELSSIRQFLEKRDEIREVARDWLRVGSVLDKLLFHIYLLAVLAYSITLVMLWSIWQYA
# Chain of UniProt Q8WTQ7 (whole entry, looked up): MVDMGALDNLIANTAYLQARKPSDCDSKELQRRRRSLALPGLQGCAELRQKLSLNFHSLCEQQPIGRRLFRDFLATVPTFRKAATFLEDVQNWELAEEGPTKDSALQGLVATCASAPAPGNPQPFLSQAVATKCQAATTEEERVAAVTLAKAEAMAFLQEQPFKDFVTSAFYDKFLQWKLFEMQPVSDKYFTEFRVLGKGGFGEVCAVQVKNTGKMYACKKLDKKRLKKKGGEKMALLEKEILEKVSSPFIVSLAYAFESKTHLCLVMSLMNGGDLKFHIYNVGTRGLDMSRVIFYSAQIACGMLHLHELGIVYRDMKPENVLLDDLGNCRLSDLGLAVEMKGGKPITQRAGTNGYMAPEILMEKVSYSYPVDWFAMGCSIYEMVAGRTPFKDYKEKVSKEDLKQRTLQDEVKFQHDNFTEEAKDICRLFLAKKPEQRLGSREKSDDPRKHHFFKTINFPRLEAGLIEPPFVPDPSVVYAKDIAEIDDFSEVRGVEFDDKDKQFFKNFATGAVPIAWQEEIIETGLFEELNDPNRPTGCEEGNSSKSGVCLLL
# Chain of UniProt P27361 (whole entry, looked up): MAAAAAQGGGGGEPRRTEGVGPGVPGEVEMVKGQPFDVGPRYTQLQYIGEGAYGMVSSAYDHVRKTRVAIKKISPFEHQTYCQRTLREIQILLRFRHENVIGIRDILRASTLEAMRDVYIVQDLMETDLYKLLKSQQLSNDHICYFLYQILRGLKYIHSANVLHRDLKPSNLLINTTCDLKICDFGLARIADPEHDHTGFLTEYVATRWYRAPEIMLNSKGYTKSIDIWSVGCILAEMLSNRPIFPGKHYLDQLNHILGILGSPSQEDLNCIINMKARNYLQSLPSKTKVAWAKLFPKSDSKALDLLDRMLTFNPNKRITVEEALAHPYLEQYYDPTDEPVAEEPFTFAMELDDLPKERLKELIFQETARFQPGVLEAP
# Chain of UniProt P36896 (whole entry, looked up): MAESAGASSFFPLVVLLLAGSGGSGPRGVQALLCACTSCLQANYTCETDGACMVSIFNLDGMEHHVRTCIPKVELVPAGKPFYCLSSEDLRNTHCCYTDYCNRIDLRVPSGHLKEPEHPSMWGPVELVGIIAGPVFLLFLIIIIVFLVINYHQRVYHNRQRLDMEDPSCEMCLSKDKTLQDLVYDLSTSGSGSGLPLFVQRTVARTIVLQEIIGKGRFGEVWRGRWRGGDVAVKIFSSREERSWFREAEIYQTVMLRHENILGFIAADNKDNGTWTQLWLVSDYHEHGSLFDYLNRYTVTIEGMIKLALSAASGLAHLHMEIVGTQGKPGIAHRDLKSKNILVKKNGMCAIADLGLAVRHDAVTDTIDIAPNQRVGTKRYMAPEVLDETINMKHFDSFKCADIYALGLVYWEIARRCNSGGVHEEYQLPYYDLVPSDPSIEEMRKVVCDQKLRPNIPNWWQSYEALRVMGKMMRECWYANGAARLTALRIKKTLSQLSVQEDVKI
# Chain of UniProt P16257 (whole entry, looked up): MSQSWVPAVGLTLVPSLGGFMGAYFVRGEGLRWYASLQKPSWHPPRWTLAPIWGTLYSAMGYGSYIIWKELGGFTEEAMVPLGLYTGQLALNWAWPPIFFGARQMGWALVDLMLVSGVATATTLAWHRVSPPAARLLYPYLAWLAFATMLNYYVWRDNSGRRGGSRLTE

# Sample 1
# Compound: CCc1[nH]c(-c2ccc(OC)cc2)nc1-c1ccncc1
# Observed: enzyme activity
# Mode: inhibitor
# Tested at: 0.5 µM
# Relative to: control
target,remaining activity [%]
"WEE1 (Homo sapiens, UniProt P30291)",89.1
"NEK6 (Homo sapiens, UniProt Q9HC98)",95.3
"GRK7 (Homo sapiens, UniProt Q8WTQ7)",101
"JAK3 (Homo sapiens, UniProt P52333)",96.1
"ARAF (Homo sapiens, UniProt P10398)",99.6
"FRK (Homo sapiens, UniProt P42685)",101
"NEK1 (Homo sapiens, UniProt Q96PY6)",98.9
"MAP2K2 (Homo sapiens, UniProt P36507)",105
"ACVR1B (Homo sapiens, UniProt P36896)",86.5
"MST1R (Homo sapiens, UniProt Q04912)",101
"MAP3K5 (Homo sapiens, UniProt Q99683)",105
"MAPK3 (Homo sapiens, UniProt P27361)",99.9
"ULK2 (Homo sapiens, UniProt Q8IYT8)",98
"TEK (Homo sapiens, UniProt Q02763)",99.1

# Sample 2
# Target: Hepatocyte nuclear factor 3-alpha (Foxa1, Mus musculus, UniProt P35582, residues 1-468, full length assumed)
# Chain of UniProt P35582 (whole entry, looked up): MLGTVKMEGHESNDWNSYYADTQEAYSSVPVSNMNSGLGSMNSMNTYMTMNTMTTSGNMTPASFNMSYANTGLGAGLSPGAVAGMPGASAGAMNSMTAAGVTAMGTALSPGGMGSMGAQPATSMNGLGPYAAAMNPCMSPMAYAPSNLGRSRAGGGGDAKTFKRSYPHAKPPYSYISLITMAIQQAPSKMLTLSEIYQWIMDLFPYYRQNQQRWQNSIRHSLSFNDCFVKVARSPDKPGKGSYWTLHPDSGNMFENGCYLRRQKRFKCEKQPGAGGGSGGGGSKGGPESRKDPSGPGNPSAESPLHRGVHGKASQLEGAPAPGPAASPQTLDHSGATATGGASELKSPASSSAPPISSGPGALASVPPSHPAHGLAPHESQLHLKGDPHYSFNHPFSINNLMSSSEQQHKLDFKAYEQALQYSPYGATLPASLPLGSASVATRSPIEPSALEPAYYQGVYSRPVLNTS
# Technique: EMSA with sequencing
# Form: double-stranded DNA, one strand shown
# Medium: in vitro
# Tested at: 10 and 20 nM
# Notes: whole designed probe, mean of two concentrations, ends assumed
# Relative to: negative control set to 0
# Reading: higher = stronger binding
Strand,normalised bound fraction [ratio]
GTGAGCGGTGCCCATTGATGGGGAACATCTTCCCCCTCTTCCTTGCCCCACCAGCTCACCTTCCCGGGTTATTTGCAGATAGGAAAATAAATAAAGCCGGCATTTGCACTCCATCTTCTGGCGCAAACTGCTGTTTGCTCTGGATGAATCATGGTCCTTTGGCGACGCCAGGCTCCGGGAGAGCAAAGCACCGTGTCAGGGCCATGATCCGGGGTGGCCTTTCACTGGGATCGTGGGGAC,0.324
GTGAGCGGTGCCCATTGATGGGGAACATTATAAGTCCCCATTTTCATTATATTCTAAGGAGCTTGAAGATATACTTTTGATTCTTTTTAAACTGTGCATTCGAGAATTAATCTCTTCTTGTTTACTTTTATGTTCAGTCTTTCAATGTTATTTTCTAATTTTTGTGTATCATTTTATTTATCAACACATAAATATATACATTCACATAAGTATACGAGTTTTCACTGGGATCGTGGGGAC,0.45
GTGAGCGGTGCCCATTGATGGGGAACCTAGCTCCAGTCTTAGCATGGCAACTTCTTCCTGCAACGTACTATTTTCATGCAAGAAGTCTTTTTCTTTCTTATAACTAAGAGAAAGCTAAGTAAACAAAGGGAACTTTTAGTTAGCACTCAATAGATTGACATATCATGATTTCTTCTGAAATTAAAAAATAACGTGTATTTGTATAATGAAAGAATCCACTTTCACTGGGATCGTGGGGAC,0.501
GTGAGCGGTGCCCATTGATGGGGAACATCTTCCCCCTCTTCCTTGCCCCACCAGCTCACCTTCCCGGGTTATTTGCAAAGTAGAAGATAAATAAAGCCGGCATTCGTTAACCCTCTTCTGGCGCAAACTGCTGTTTGCTCTGGATGAATCATGGTCCTTTGGCGACGCCAGGCTCCGGGAGAGCAAAGCACCGTGTCAGGGCCATGATCCGGGGTGGCCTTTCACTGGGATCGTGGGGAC,0.304
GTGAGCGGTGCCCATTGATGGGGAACAATTATAAATATATAATTATAAATTTATATAAAAATATGTAATTATAAATATGTAATTATATCTAATAGGGTATATTATTTTTTCTAAAACAAAGTAAACATACAAATGAGAGATTAAACAAATTAGCATAACATAAATTTATCTGCTCTAAAGCTGGGAAAAGATGTGAAAGAAATTATTTTTGTCTTTAAATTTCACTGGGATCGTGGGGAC,0.412
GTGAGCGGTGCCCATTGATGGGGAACCAGTATTTTTCTTTTTACATTAATATTCCCTTAAAAACATTACCTGGAATGATCCTCTGTGCATGGAGAAGTACACATTCTGCAATGATAAGTGTAATCTAAACTGAACATTTTATTTCTCCCTTTTTGCTATTCTCTGACCTGCAGTGCATTCCAATACTTTCTGCTTTCAGTTAACACGCAGTTCTTTATTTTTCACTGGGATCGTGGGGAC,0.00128
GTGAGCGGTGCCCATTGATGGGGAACCACCAAACTTGACCTGCTCTCCACCCTCGGATCTAGTCAGGCTAGACAACACTGCTGTCAACAAATTTTAGGATCTCTGTGGCTGAACCTGGATGTTTACTTTTCATGCACACAGAGGCTACTGTGGATCTAGAGCCTCTCCATGGAAGCTCCCTGCAGATGGGTGGCTCCAGTCTCCAAGGGCTTCCATCTTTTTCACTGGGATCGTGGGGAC,0.446
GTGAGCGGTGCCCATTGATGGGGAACATCTTCCCCCTCTTCCTTGCCCCACCAGCTCACCTACGGGGGTTATTTGCACAAAGGAAAATAAATAAAGCCGGCATTCGTTAACCCTCTTCACGCGCATACTGCTGTTTGCTCTGCATCTAACATGGTCCTTACGCGACGCCAGGCTCCGGGAGAGCAAAGCACCGTGTCAGGCGCATGATCCGGGGTGGCCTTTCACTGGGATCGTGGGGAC,0.389

# Sample 3
# Target: CEBPE, bZIP domain (human)
# Technique: DHFR protein complementation
# Medium: yeast
# Notes: single substitutions, most at no-binding floor
# Relative to: wild-type JUN-FOS pair
# Reading: higher = stronger binding
# Starting sequence: JUN, bZIP domain (human); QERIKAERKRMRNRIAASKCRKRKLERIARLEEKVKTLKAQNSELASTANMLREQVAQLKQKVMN; partner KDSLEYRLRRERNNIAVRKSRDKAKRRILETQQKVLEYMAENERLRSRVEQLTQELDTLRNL
Substitution,binding fitness
K34Y,-0.862 natural log
A29W,-1.22 natural log
K39T,-1.3 natural log
R30L,-1.04 natural log
V56P,-1.52 natural log
E44F,-1.42 natural log
K36A,-0.961 natural log
M51V,-1.15 natural log

# Sample 4
# Structure (SMILES): CC1=C(C#N)[C@@H](c2ccc3[nH]nc(C)c3c2)C(C#N)=C(c2ccc(Cl)cc2)N1
# Tested at: 10 µM
target,test,inhibition
"HTR5A (Homo sapiens, UniProt P47898)",ligand displacement,4.53%
"HTR3A (Homo sapiens, UniProt P46098)","binding, radioligand binding",2.6%
"Tspo (Rattus norvegicus, UniProt P16257)","radioligand binding, radioligand displacement",69.6%
